Published values collected from several papers.
Each numbered part is a random draw from the data of one study; scales do not carry over between parts. Positions count from the first letter of the parent shown.

Series 1
Target: FOSL1, bZIP domain (human)
Method: DHFR protein complementation
Sample: yeast
Setting: single substitutions, most at no-binding floor
Reference: wild-type JUN-FOS pair
Reading: higher = stronger binding
Quantity: binding fitness
Starting sequence: JUN, bZIP domain (human); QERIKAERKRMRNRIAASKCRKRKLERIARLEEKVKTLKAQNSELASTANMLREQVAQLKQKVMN; partner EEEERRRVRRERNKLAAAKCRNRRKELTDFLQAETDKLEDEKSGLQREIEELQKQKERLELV
V35Q: -0.863 natural log
L31G: -1.37 natural log
L31W: -0.819 natural log
S43E: -0.281 natural log
S47L: -0.408 natural log
E32K: -0.384 natural log
R53A: -0.864 natural log
Q55D: -0.836 natural log
E33G: -0.733 natural log
E54K: -0.55 natural log
R30D: -0.184 natural log
R53P: -1.39 natural log
E44V: -0.436 natural log
R30H: -0.253 natural log
S47P: -1.34 natural log
K34L: -0.567 natural log
N42A: -1.04 natural log
R53T: -1.25 natural log
K34H: -0.26 natural log
V35F: -0.707 natural log
A46C: -0.785 natural log
Q41F: -1.46 natural log

Series 2
Target: Prothrombin, mature alpha-thrombin (F2, Homo sapiens, UniProt P00734)
Method: aptamer microarray, sandwich
Form: DNA with 2'F-ANA
Sample: in vitro
Tested at: 200 nM
Setting: whole 15-mer aptamer, many near background
Added: Cy3 exosite-II aptamer, 400 nM
Reading: higher = stronger binding
Quantity: mean fluorescence intensity
Oligonucleotide: GGTTGGTGTGGTTGG
2'F-ANA at 2 9 12 13 14: 159 a.u.
2'F-ANA at 4 5 6 9 14 15: 56.4 a.u.
2'F-ANA at 1 2 6 7 8 9 12 14 15: 75.6 a.u.
2'F-ANA at 1 4 7 10 12 14 15: 59.5 a.u.
2'F-ANA at 1 3 6 13 14 15: 79.4 a.u.
2'F-ANA at 1 3 5 6 7 13 15: 56 a.u.
2'F-ANA at 2 4 7 9 10 13 15: 73.6 a.u.
2'F-ANA at 6 7 11 12 13 14 15: 204 a.u.
2'F-ANA at 1 2 4 8 13 14 15: 52.9 a.u.
2'F-ANA at 1 2 3 4 5 7 8 9 12 13 14: 51.5 a.u.
2'F-ANA at 2 4 8 10 13: 72.6 a.u.
2'F-ANA at 1 2 4 6 11 12 15: 190 a.u.
2'F-ANA at 1 2 7 8 9 12 13: 314 a.u.
2'F-ANA at 5 6 7 8 9 10 11 12: 50.9 a.u.
2'F-ANA at 3 7 8 9 11 12 13: 1160 a.u.
2'F-ANA at 1 2 3 5 6 7 8 9 11 14: 48 a.u.
2'F-ANA at 2 4 5 6 8 9 10 12 13 15: 82.8 a.u.
2'F-ANA at 1 2 3 4 6 10 13 15: 60 a.u.
2'F-ANA at 3 5 6 9 11 13 14 15: 61.3 a.u.
2'F-ANA at 1 3 4 5 7 8 10 11 12: 70.8 a.u.
2'F-ANA at 1 2 4 5 6 11 12 14: 48.5 a.u.
2'F-ANA at 2 4 7 8 11 13 15: 245 a.u.
2'F-ANA at 1 3 5 7 8 11 12 13: 94 a.u.
2'F-ANA at 1 2 5 6 7 8 9 12 15: 137 a.u.

Series 3
Target: CCND2, cyclin fold, Cln2 fusion (human)
Method: yeast growth competition, sequencing
Sample: yeast
Setting: weak parent motif
Reference: not given
Reading: higher = stronger binding
Quantity: normalised enrichment score
Starting sequence: PPP1R3F docking peptide (human); VAPRRVLFADEAL; partner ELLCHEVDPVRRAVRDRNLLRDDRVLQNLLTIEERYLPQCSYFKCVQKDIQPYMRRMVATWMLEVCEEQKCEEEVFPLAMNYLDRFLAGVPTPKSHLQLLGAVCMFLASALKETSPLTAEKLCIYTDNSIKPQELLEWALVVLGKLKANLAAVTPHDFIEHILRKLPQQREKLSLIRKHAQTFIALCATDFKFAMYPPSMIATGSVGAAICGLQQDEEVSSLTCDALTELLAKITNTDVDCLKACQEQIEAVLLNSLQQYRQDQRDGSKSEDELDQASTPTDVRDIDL
VAPRRALFADEAL [V6A]: -0.00333
VAPRRVLLADEAL [F8L]: 0.341
VAPRKVLLADEAL [R5K F8L]: 0.22
VAPRAVAFADEAL [R5A L7A]: -0.0165
VAPRRVLAADEAL [F8A]: -0.0935
VAARRVLFADEAL [P3A]: 0.239
VAPRAVLFADEAL [R5A]: 0.39
VAPRRVAFADEAL [L7A]: -0.194

Series 4
Target: ABI1, truncated, D143A, DHFR fusion (Arabidopsis thaliana)
Method: DHFR PCA, deep sequencing
Sample: yeast
Setting: methotrexate growth selection, single substitutions
Added: (+)-ABA 4.8 µM
Reference: wild-type fitted maximum
Reading: higher = stronger binding
Quantity: relative binding score
Starting sequence: PYL1, truncated, DHFR fusion (Arabidopsis thaliana); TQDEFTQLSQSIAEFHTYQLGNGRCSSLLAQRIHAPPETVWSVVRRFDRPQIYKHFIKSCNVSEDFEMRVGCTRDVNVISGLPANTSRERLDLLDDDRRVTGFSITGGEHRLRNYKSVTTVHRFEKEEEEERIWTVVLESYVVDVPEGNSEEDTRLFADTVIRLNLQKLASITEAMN
F15A: 17.7%
R49C: 71.1%
D48Y: 0.584%
P146R: 4.89%
Q2N: 69.9%
R69V: 75.3%
V78T: 38.7%
P146S: 6.7%
V70Y: -5.45%
P83R: 11.9%
T1W: 69.3%
V40E: -23%

Series 5
Target: Phosphate system positive regulatory protein PHO4, full length, GST-tagged (PHO4, Saccharomyces cerevisiae, UniProt P07270, residues 1-312)
Method: competition protein-binding microarray
Form: double-stranded DNA, one strand shown
Sample: in vitro
Tested at: 2 µM
Setting: whole 60-bp probe, lowest competitor level
Added: Cbf1 competitor, 0.05 µM
Reading: higher = stronger binding
Quantity: fluorescence intensity
Shared flanks, not repeated: … GTCTTGATTCGCTTGACGCTGCTG
Residues (chain): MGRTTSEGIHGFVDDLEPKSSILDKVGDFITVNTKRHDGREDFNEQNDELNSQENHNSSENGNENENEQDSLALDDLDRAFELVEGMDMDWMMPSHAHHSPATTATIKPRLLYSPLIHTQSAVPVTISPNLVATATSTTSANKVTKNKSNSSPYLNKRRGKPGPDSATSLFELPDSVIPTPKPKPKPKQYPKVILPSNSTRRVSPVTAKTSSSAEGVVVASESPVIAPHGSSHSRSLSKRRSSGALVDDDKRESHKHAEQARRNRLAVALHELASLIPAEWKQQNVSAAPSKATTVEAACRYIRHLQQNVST
GTCCCCAGCGTACAAACCGTGACGGTTACCGAAAGC: 4400 a.u.
GTCTTGTCTCATTTTCACGTGACTTTCCCCACTTCA: 9880 a.u.
CTAACGAAGGTTTGTTCTGTGGGTGACAAGCCAAGT: 3670 a.u.
CGTCCTAGTGATTGCCGAGTGGGTGCCATGAGGAAG: 7260 a.u.
CGTCCTAGTGATTGCATCGTGGGTGCCATGAGGAAG: 11800 a.u.
CTTTCCGGTTCGGGCCAGGTGACGGAAATCGTTCTG: 3340 a.u.
GCATCTGCAGGGTGCCTCGTGCAAAGTTAGAGGAAG: 10300 a.u.
CGTCCTAGCGATTGACTGGTGGGTGCCATGAGGAAG: 6920 a.u.
CCGCTGCTCGCCGGCCACGTGCGCAGCCTGCAGGAG: 14200 a.u.
ATATATAAAGTGCGTAATGTGCGTACTAAAAAAGCT: 5690 a.u.
GAAAGCATCCGACGCCGCGTGGTCAATTTGTTCCTT: 8920 a.u.
CATCCTTTCCAACATGATGTGACGAATTAACGACTG: 6950 a.u.
CTAACGAAGGTTTGCGTTGTGGGTGACAAGCCAAGT: 4910 a.u.
AGCTTCCGAGACTTTTTCGTGATGGGAGATAGATGC: 3520 a.u.
CTCTTCCTCAAGCGTCACCTGATCTCTTCTTTCCCA: 3620 a.u.
CCCGTTCGCTAACCAAGCGTGGGACAAGAGTTTAGG: 7290 a.u.
ACTGTTAAGAACCGTCACGTCTTCCTTTGGCTTTGA: 5330 a.u.
CCGCCCTTCTTCCGTCCCGTGCGGAAGGGGGGCGCG: 6010 a.u.
CAGGGGGAGCAAGTGCATGATCAGAAGGACCAATCT: 5520 a.u.
